Results collected from several papers.
A part holds a random share of what one study measured.
Chain of UniProt Q8N568 (whole entry, looked up): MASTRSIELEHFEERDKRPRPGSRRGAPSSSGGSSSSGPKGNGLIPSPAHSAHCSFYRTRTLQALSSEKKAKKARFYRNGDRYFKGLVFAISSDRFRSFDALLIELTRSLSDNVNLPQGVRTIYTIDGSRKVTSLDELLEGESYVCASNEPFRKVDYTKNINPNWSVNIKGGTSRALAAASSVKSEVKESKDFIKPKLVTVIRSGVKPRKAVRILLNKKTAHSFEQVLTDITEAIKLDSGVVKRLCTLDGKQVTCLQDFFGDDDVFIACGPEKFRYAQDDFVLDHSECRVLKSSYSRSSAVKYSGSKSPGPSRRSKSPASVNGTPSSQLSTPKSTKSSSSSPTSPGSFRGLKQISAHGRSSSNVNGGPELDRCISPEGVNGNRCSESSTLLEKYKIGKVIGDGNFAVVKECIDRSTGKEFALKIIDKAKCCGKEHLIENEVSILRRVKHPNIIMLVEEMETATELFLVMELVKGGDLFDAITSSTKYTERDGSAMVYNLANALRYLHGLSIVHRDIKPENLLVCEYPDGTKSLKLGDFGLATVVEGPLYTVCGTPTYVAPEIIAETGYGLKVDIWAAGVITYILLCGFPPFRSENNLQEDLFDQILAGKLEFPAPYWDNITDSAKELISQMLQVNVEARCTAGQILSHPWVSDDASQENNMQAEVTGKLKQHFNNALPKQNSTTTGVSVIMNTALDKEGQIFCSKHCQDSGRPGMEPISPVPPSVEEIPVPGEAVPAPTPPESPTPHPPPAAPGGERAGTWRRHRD
Chain of UniProt P51956 (whole entry, looked up): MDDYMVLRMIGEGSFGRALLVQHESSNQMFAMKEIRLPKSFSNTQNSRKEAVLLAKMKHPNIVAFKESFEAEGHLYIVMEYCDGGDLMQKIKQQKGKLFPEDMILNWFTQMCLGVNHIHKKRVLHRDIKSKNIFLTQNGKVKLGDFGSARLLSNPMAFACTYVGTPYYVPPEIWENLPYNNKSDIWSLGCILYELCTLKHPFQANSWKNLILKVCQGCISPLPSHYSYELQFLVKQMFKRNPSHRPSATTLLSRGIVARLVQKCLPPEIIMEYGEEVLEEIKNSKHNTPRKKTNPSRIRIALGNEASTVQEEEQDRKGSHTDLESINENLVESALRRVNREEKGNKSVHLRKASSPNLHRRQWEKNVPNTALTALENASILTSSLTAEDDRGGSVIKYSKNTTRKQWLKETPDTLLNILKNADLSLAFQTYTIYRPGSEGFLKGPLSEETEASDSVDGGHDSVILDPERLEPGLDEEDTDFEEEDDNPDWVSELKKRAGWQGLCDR
Chain of UniProt P42681 (whole entry, looked up): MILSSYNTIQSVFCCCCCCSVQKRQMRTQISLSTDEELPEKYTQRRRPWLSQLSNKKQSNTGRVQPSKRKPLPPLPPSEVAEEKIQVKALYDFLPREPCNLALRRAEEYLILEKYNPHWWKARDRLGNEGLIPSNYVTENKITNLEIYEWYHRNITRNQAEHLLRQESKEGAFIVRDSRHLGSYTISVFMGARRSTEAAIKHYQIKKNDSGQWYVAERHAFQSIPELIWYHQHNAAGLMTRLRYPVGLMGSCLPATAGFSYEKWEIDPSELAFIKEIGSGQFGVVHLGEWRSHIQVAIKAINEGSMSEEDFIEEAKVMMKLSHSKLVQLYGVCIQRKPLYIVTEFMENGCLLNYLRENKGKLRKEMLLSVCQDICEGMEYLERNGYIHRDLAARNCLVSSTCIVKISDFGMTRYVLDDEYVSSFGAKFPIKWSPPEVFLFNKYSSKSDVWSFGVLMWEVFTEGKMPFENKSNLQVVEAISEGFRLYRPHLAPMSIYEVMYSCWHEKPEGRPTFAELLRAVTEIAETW
Chain of UniProt P31751 (whole entry, looked up): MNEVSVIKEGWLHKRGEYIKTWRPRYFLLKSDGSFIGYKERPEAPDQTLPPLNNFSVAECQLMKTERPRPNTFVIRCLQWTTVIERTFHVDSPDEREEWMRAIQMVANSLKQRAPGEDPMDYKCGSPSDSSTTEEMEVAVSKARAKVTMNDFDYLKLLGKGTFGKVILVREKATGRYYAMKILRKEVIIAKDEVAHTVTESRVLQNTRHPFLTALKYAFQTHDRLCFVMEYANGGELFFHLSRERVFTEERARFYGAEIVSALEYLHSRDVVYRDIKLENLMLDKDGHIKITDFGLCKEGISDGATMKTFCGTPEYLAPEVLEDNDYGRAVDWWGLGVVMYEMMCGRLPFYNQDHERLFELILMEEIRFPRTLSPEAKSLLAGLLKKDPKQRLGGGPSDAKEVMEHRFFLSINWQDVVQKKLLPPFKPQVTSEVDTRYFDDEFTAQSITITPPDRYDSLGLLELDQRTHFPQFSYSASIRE
Chain of UniProt P42338 (whole entry, looked up): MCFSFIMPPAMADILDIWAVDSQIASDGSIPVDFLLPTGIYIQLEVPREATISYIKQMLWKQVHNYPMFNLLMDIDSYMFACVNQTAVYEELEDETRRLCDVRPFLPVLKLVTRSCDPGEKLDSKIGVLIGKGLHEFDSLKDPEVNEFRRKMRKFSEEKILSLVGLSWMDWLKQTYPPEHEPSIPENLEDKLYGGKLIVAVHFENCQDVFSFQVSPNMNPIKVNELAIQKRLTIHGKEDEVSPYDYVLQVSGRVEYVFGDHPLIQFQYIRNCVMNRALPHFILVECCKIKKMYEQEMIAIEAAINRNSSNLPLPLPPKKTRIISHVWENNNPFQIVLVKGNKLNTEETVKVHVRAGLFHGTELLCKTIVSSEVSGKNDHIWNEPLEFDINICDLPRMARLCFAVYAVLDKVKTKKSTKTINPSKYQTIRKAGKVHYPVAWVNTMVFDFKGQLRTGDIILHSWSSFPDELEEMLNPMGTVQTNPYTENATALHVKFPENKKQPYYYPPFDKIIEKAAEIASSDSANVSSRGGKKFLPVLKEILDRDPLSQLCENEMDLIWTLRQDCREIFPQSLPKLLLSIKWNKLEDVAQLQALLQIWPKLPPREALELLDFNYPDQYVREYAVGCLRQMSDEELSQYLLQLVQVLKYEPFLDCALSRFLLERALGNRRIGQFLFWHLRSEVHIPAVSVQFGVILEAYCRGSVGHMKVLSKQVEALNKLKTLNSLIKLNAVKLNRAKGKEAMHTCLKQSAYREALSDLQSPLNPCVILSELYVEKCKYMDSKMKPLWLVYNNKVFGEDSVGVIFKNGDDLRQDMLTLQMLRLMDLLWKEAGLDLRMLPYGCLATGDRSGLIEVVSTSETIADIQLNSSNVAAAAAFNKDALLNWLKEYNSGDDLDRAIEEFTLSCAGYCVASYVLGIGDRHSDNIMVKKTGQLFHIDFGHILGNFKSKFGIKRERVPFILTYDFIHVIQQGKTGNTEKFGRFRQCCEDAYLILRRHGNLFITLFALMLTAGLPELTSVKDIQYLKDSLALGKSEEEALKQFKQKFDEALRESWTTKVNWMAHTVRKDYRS
Chain of UniProt O14730 (whole entry, looked up): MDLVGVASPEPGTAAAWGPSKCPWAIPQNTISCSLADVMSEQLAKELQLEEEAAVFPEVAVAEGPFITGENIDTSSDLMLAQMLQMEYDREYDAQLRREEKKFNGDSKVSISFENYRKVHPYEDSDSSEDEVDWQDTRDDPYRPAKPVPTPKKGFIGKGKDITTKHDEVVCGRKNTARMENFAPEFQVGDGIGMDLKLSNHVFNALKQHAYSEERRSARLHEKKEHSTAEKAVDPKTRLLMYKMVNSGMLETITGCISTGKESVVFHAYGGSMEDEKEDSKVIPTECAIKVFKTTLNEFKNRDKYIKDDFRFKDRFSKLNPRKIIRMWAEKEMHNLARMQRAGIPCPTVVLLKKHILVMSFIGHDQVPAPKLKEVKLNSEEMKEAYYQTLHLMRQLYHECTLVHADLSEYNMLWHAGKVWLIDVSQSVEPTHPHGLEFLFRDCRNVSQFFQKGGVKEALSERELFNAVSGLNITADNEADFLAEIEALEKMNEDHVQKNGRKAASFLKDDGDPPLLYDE
Chain of UniProt Q6P2M8 (whole entry, looked up): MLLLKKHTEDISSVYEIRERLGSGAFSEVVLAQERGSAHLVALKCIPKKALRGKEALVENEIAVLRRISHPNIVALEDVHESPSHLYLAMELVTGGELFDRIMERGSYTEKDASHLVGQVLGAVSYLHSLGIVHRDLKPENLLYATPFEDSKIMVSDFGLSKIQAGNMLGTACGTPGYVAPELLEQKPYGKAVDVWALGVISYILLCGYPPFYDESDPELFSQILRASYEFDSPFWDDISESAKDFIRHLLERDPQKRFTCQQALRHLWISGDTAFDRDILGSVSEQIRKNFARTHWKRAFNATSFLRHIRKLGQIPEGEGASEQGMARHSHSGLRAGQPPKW
Chain of UniProt P11802 (whole entry, looked up): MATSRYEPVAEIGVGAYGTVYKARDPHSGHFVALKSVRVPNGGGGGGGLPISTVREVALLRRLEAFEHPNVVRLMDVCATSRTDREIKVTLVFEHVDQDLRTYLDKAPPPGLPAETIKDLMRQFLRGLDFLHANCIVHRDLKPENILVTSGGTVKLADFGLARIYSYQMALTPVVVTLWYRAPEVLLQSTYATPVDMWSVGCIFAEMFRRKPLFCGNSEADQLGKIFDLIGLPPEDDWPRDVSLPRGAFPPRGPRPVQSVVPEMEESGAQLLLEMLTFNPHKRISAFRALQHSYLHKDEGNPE
Chain of UniProt P28482 (whole entry, looked up): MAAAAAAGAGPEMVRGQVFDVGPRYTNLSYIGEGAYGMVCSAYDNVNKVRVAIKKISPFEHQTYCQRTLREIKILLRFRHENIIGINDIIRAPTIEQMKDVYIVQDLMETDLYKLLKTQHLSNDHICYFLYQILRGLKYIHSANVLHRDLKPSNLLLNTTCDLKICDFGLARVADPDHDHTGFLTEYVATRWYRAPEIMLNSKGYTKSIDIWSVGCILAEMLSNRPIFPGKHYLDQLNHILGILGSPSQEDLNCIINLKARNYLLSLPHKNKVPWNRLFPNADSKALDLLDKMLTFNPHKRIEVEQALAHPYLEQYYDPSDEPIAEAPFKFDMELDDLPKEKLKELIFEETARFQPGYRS

Sample 1
SMILES: Cn1nc(C(=O)NCc2ccc(C(=O)O)cc2)cc1-c1ccc2[nH]ccc2c1
Method: competition with immobilised ligand
Concentration: 0.1 µM
| target | observed | remaining binding [%] |
| --- | --- | --- |
| STK39 (Homo sapiens, UniProt Q9UEW8) | cell-free assay | 90 |
| ACVRL1 (Homo sapiens, UniProt P37023) | binding | 97 |
| MAP3K12 (Homo sapiens, UniProt Q12852) | cell-free assay | 100 |
| Cyclin-dependent kinase 4, with cyclin D3 (CDK4, Homo sapiens, UniProt P11802) | cell-free assay | 88 |
| MAPK4 (Homo sapiens, UniProt P31152) | cell-free assay | 89 |
| RIOK3 (Homo sapiens, UniProt O14730) | cell-free assay | 83 |
| MAST1 (Homo sapiens, UniProt Q9Y2H9) | cell-free assay | 100 |
| PIK3CB (Homo sapiens, UniProt P42338) | cell-free assay | 82 |
| FGFR1 (Homo sapiens, UniProt P11362) | cell-free assay | 84 |
| MAP3K4 (Homo sapiens, UniProt Q9Y6R4) | cell-free assay | 86 |
| IKBKE (Homo sapiens, UniProt Q14164) | cell-free assay | 100 |

Sample 2
Species: human
Medium: microsomes or S9
Concentration: 2 µM
Time: 0.5 h
| Structure (SMILES) | remaining compound [%] |
| --- | --- |
| Nc1cc(-c2ccc(Br)cc2)nn1CC1CCCCC1 | 23.8 |
| CCc1cc2c3c([nH]c2cc1S(=O)(=O)N(Cc1ccccc1)C(C)C)CCCC3=O | > 99 |
| CN(C)c1nc(N)nc(CNc2nccc(C3CCCC3)n2)n1 | 1.57 |
| Nc1nc(F)c2ncn(C3CC(O)C(CO)O3)c2n1 (centres unmarked) | 6.55 |
| c1ccc2c(-c3noc4c3CNCC4)cccc2c1 | 53 |
| CN(C)CC(C)(C)CNc1ncnc2c1cnn2-c1ccccc1 | 34.3 |
| Cc1cc(NC(=O)c2cc(C(=O)Nc3cc(C)n(C(C)C)n3)n(C)n2)nn1C(C)C | > 100 |
| CCC(CC)CN1CC2(CCN(C(=O)[C@@H]3C[C@H](N)CN3C)CC2)OC1=O | > 100 |
| CC(C)n1cncc1CN1CC[C@H]2OCc3cnnn3[C@H]2C1 | 79.6 |
| Cc1ccccc1C(C)NS(=O)(=O)c1ccc(Cl)c(-c2nnn[nH]2)c1 (centres unmarked) | > 100 |

Sample 3
Cell line: HuT78
Concentration: 2 µM
Time: 48 h
Baseline: untreated
| SMILES | viability |
| --- | --- |
| CCOC(=O)c1cnc2ccc(-c3cncc(NS(=O)(=O)c4ccccc4)c3)cn12 | 7.5% |
| CCc1cc(Nc2nccc(-c3c(-c4ccc(OC)c(C(=O)Nc5c(F)cccc5F)c4)nc4ccccn34)n2)c(OC)cc1N1CCC(N2CCN(S(C)(=O)=O)CC2)CC1 | 128% |
| COc1ccc(Cl)cc1NC(=O)Nc1cc(C)nc2ccccc12 | 110% |
| C[C@H](Nc1ncnc2nc[nH]c12)c1cc2cccc(Cl)c2c(=O)n1-c1ccccc1 | 90.1% |
| COc1cccc(-c2cc(=O)c3ccccc3o2)c1N | 123% |
| CC(C)n1nc(-c2ccc3oc(N)nc3c2)c2c(N)ncnc21 | 20.1% |
| Cc1[nH]c2ccccc2c1C1=C(NCCc2ccc(F)cc2)C(=O)N(C)C1=O | 139% |
| c1cncc(CN2CCC(n3ncc4c(N5CCOCC5)nc(-c5ccc6[nH]ccc6c5)nc43)CC2)c1 | 78.2% |
| Cc1cc(CS(=O)(=O)c2ccccc2)cc(OCc2ccc(CN3CCC[C@@H]3CO)cc2)c1 | 120% |

Sample 4
SMILES: Nc1ccc2ncnc(NCCc3ccc(Oc4ccccc4)cc3)c2c1
Observed: enzyme activity
Mode: inhibitor
Concentration: 0.5 µM
Baseline: control
| target | remaining activity [%] |
| --- | --- |
| GRK4 (Homo sapiens, UniProt P32298) | 99.6 |
| MARK4 (Homo sapiens, UniProt Q96L34) | 105 |
| CLK3 (Homo sapiens, UniProt P49761) | 117 |
| TLK2 (Homo sapiens, UniProt Q86UE8) | 92.8 |
| PNCK (Homo sapiens, UniProt Q6P2M8) | 98.5 |
| CDC42BPB (Homo sapiens, UniProt Q9Y5S2) | 105 |
| PAK3 (Homo sapiens, UniProt O75914) | 102 |
| CLK4 (Homo sapiens, UniProt Q9HAZ1) | 94.6 |
| MAPK1 (Homo sapiens, UniProt P28482) | 90.1 |
| DDR2 (Homo sapiens, UniProt Q16832) | 96.8 |
| DCLK2 (Homo sapiens, UniProt Q8N568) | 99.1 |
| MINK1 (Homo sapiens, UniProt Q8N4C8) | 95.4 |
| KDR (Homo sapiens, UniProt P35968) | 91.7 |
| Cyclin-dependent kinase 1, with cyclin A (CDK1, Homo sapiens, UniProt P06493) | 98.9 |
| CAMK4 (Homo sapiens, UniProt Q16566) | 98.9 |
| TXK (Homo sapiens, UniProt P42681) | 102 |
| Myosin-IIIb (MYO3B, Homo sapiens, UniProt Q8WXR4) | 96.6 |
| PRKG2 (Homo sapiens, UniProt Q13237) | 105 |
| MET (Homo sapiens, UniProt P08581) | 99.9 |
| MAPK11 (Homo sapiens, UniProt Q15759) | 98.1 |
| Cyclin-dependent kinase 9, with cyclin K (CDK9, Homo sapiens, UniProt P50750) | 104 |
| NEK3 (Homo sapiens, UniProt P51956) | 108 |
| AKT2 (Homo sapiens, UniProt P31751) | 101 |

For quick reference, copied from above (sample 4):
| target | remaining activity [%] |
| --- | --- |
| TXK (Homo sapiens, UniProt P42681) | 102 |
| Myosin-IIIb (MYO3B, Homo sapiens, UniProt Q8WXR4) | 96.6 |
| PRKG2 (Homo sapiens, UniProt Q13237) | 105 |
| MET (Homo sapiens, UniProt P08581) | 99.9 |
| MAPK11 (Homo sapiens, UniProt Q15759) | 98.1 |
| Cyclin-dependent kinase 9, with cyclin K (CDK9, Homo sapiens, UniProt P50750) | 104 |
| NEK3 (Homo sapiens, UniProt P51956) | 108 |
| AKT2 (Homo sapiens, UniProt P31751) | 101 |
